{"data": "Published values gathered from unrelated publications", "note": "Parts stem from different laboratories: compare values within a part only. Changes are numbered by the printed parent chain."}
{"data": "Sample 1", "target": "HLF, bZIP domain (human)", "method": "DHFR protein complementation", "sample": "yeast", "notes": "single substitutions, most at no-binding floor", "reference": "wild-type JUN-FOS pair", "reading": "higher = stronger binding", "starting sequence": "JUN, bZIP domain (human); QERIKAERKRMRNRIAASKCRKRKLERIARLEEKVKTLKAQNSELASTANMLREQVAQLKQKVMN; partner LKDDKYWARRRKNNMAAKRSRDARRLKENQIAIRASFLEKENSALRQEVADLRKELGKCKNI"}
{"Change": "V56S", "binding fitness": "-1.41 natural log"}
{"Change": "L45N", "binding fitness": "-1.5 natural log"}
{"Change": "N42G", "binding fitness": "-1.49 natural log"}
{"Change": "R30N", "binding fitness": "-1.47 natural log"}
{"Change": "L45R", "binding fitness": "-1.52 natural log"}
{"Change": "R53A", "binding fitness": "-1.51 natural log"}
{"Change": "E32C", "binding fitness": "-1.42 natural log"}
{"Change": "L38Q", "binding fitness": "-1.6 natural log"}
{"Change": "K39S", "binding fitness": "-1.32 natural log"}
{"Change": "T37K", "binding fitness": "-1.5 natural log"}
{"data": "Sample 2", "target": "CCNB2, cyclin fold, Cln2 fusion (human)", "method": "yeast growth competition, sequencing", "sample": "yeast", "notes": "weak parent motif", "reference": "not given", "reading": "higher = stronger binding", "starting sequence": "SLBP docking peptide (human); ARYKRKLLINDFG; partner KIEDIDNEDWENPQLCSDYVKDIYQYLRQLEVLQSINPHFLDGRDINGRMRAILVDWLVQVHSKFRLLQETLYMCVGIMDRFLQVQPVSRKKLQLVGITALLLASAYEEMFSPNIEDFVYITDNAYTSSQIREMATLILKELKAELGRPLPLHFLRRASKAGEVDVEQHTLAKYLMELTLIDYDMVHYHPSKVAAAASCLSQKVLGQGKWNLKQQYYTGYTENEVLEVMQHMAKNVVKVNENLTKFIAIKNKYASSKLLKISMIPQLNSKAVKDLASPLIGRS"}
{"Change": "L7M", "normalised enrichment score": 0.634}
{"Change": "L7S", "normalised enrichment score": 0.17}
{"Change": "D11N", "normalised enrichment score": 0.219}
{"Change": "R5K L8F", "normalised enrichment score": 0.228}
{"Change": "Y3E", "normalised enrichment score": 0.804}
{"Change": "Y3K", "normalised enrichment score": -0.0816}
{"Change": "R5Q", "normalised enrichment score": 0.204}
{"Change": "K6N", "normalised enrichment score": 0.544}
{"Change": "D11F", "normalised enrichment score": 0.228}
{"Change": "G13T", "normalised enrichment score": 0.281}
{"Change": "Y3R", "normalised enrichment score": 0.15}
{"Change": "F12T", "normalised enrichment score": 0.102}
{"Change": "K6Y", "normalised enrichment score": 0.727}
{"data": "Sample 3", "target": "RING finger protein unkempt homolog, zinc fingers 1-6, GST-SBP tag (UNK, Homo sapiens, UniProt Q9C0B0, residues 30-357)", "method": "RNA Bind-n-Seq", "form": "RNA", "sample": "in vitro", "concentration": "not given", "notes": "RNA with constant flanks, human and mouse sites, ends assumed", "reference": "input RNA pool", "reading": "higher = stronger binding", "Target sequence (chain)": "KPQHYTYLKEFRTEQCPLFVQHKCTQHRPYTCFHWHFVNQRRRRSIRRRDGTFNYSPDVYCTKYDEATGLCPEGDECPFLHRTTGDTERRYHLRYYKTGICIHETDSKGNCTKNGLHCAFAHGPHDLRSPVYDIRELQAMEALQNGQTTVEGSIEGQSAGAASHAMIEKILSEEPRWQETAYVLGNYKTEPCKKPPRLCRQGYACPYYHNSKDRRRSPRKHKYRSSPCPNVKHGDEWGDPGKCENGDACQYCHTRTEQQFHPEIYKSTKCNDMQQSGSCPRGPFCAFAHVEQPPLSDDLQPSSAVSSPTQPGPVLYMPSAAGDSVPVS"}
{"Oligonucleotide": "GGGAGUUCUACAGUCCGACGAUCUUAGUACCAAGAUGUUCUUUUUUCAUUAUCAGUCUUUCAGAUGUCUAUUUUCUUGCUGAAUAGCAGAGGACUUUAUUUCCACCUCCCUAUAAAGUGUGAGCACUGUGUUUCAGCGAGCUGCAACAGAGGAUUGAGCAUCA", "bound/input enrichment [ratio]": 1.01}
{"Oligonucleotide": "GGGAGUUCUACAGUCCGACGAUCGAAAGGGCUAAACUGAUUUCCUUGCCAACUAGUAAAAACUGGACCUUCGGACCCCAGGACGUCGAUGAACUGAUCUUCAUGCUGAGCGACAGCCCUGGGGUCAUGUGCCGGCCUUCCCGACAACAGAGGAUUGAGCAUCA", "bound/input enrichment [ratio]": 0.274}
{"Oligonucleotide": "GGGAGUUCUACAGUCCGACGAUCCUGGCUUCUGUGCCCGCCGGCGCUUUUUCCCGCCUGCACAAGCUGGCCCGGCUGGACAUGACCUCCAACCGCCUGACCACAAUCCCACCCGACCCACUCUUCUCCCGCCUGCCCCUGCUCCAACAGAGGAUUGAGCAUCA", "bound/input enrichment [ratio]": 0.258}
{"Oligonucleotide": "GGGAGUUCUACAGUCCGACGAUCGUAAAUCAUAUGGAUGGAGAAAGCCUCAAACUCCGAUCUCUUCGAGUUAACGUAGGACAACUGCUGGCUAUGAUUGUGCCUGAUCUUGAUCUUCAGCAAGUGAAUUACGAUGUUGAUGUACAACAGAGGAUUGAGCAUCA", "bound/input enrichment [ratio]": 0.211}
{"Oligonucleotide": "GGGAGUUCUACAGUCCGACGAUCAUCAGAAGAGUGAAAUCUCAUAAAGAAUUUUUGAAUAAAACAACACACCAGCUUUUAUUUGUUAGGCAUCAGUUCAAAAUAGCUUUCUUCAGUGAGUUGAAACAAGAUACACAAAAUGCGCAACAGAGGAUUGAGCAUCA", "bound/input enrichment [ratio]": 0.892}
{"Oligonucleotide": "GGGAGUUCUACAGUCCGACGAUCGCGCAGUAUAUUACUGCAGCCCUUAGAGAUUUGUUUGAUUCCAUGGAUAAAACUUCUUCCAGUAUUCCACCUAUUAUUCUACUGCAGUUUUUGCACAUGGCUUUCCCACAGUUUGCCGAGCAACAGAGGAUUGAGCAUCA", "bound/input enrichment [ratio]": 0.968}
{"Oligonucleotide": "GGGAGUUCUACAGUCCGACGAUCGGCUCCAGCUACUUUGUCCGACUCUACACAGAGCCCUUGCUAGUGAACCUGCCCACCCCGGACUUCAGCAUGCCCUACAAUGUGAUCUGCCUUACGUGCACGGUGGUGGCCGUGUGCUAUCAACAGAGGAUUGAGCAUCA", "bound/input enrichment [ratio]": 0.145}
{"Oligonucleotide": "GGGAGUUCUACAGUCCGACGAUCUACUGUGACCUACAGCAGGAAUCCAGUGGCAUCGCGGGAAUCCUGAAGUGGGUAAAACUGAUUGACAACUUUGAAGGGGAAUAUGACUACGUGACCAAUGAGGGGACGGUGUUCACAUUCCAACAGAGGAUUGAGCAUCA", "bound/input enrichment [ratio]": 0.0975}
{"data": "Further values, each from its own experiment"}
{"Molecule": "PhoQ, residues 284 288 289 292 302 303 GTAMQF", "target": "PhoP, residues 12 14 15 18 19 TTLRV (Escherichia coli, UniProt P23836)", "assay": "Sort-seq, measured: YFP reporter", "test system": "E. coli", "setting": "PhoQ-PhoP variant library, with: 10 µM Mg2+", "scale": "reference: high Mg2+ state, higher = stronger signaling", "measurement": "fold induction", "result": 6.52}
{"note": "A few entries again (sample 1):"}
{"Change": "L45N", "binding fitness": "-1.5 natural log"}
{"Change": "T37K", "binding fitness": "-1.5 natural log"}
{"Change": "N42G", "binding fitness": "-1.49 natural log"}
